Measurements gathered from unrelated publications.
Compare with care: the assays were run in different laboratories. ± gives the spread as reported.

SMILES	test	system	setting	scale	endpoint	value
CCCCCCOC(=O)NC(=N)c1ccc(NCc2nc3cc(C(=O)N(CCC(=O)OCC)c4ccccn4)ccc3n2C)cc1	–	human	oral, 75 mg, compound alone	–	participants with TRAE headache	0%
CO[C@@H]1[C@H](OC(=O)N2CC(CCN3CCOCC3)C2)CC[C@]2(CO2)[C@H]1[C@@]1(C)O[C@@H]1CC=C(C)C	–	humans	subcutaneous, 0.6 mg twice weekly for 4 weeks, day 28	baseline: baseline	international normalized ratio	0.01 ± 0.03
O=C(O)CCCOc1ccc([18F])cc1-c1cc(-c2ccccc2C(F)(F)F)n(-c2ccccc2)n1	gamma counting	male ddY mice, lung	intravenous, 2.1 MBq, 60 min	–	radioactivity uptake	0.37 ± 0.04 SUV
Cc1c(C(=O)O)ccc2c3n(nc12)[C@@H]1[C@H](C3)N(CC2CC2)[C@@]2(C(=O)Nc3cc(Cl)ccc32)[C@H]1c1cccc(Cl)c1F	phase Ia trial, measured: Constipation	cancer patients	oral, dose not given, all patients grade ≥3	–	adverse event incidence	0%
C[C@@]1(c2cc(NC(=O)c3ccc(C#N)cn3)ccc2F)C=CSC(N)=N1	–	elderly humans, both sexes, plasma	oral, 10 mg single dose	–	dose-normalised AUC(0-last)	100 ng·h/mL
CCc1nc(C(N)=O)c(Nc2ccc(N3CCC(N4CCN(C)CC4)CC3)c(OC)c2)nc1NC1CCOCC1	–	Japanese patients, plasma	oral, 80 mg, cycle 1 day 28, multiple doses, mean	–	AUCtau	4140 ng·h/mL
CCOC(=O)[C@@]12C[C@@H]1[C@@H](n1ccc3c(NC)nc(C#Cc4ccc(Cl)s4)nc31)[C@H](O)[C@@H]2O	–	Sprague-Dawley rat, male, plasma	oral, 10 mg/kg	–	AUC extrapolated share	3.4%
O=c1oc2cc(O)ccc2c2ccccc12	–	human plasma	mean	–	plasma concentration	380 nM
CC(C)NCCCC[C@@H]1NC(=O)[C@H](Cc2ccc(O)cc2)NC(=O)[C@H](Cc2ccccc2)NC(=O)CC[C@H](C(=O)N[C@@H](CCCCNC(C)C)C(=O)N[C@@H](CCCCNC(=O)[C@H](CCC(=O)O)NC(=O)[C@H](CCC(=O)O)NC(=O)[C@H](CCC(=O)O)NC(=O)CN2CCN(CC(=O)O)CCN(CC(=O)O)CCN(CC(=O)O)CC2)C(N)=O)NC(=O)CNC(=O)[C@H](Cc2ccc3ccccc3c2)NC(=O)[C@@H](CCCNC(=N)N)NC1=O [gallium-68 labelled]	–	mouse with PC-3 xenograft, liver	intravenous, 1 h	–	tissue uptake	0.6 %ID/g
CO[C@H]1/C=C/O[C@@]2(C)Oc3c(C)c(O)c4c(O)c(c(/C=N/N5CCN(C)CC5)c(O)c4c3C2=O)NC(=O)/C(C)=C\C=C\[C@H](C)[C@H](O)[C@@H](C)[C@@H](O)[C@@H](C)[C@H](OC(C)=O)[C@@H]1C	starch gel membrane permeability	Gram-negative envelope surrogate	200 µM, 30 min, pH 7.4	–	amount permeated	1.1 nmol
COc1cc(C=O)ccc1O	–	human plasma	median, both sexes	–	plasma concentration	563 nM
CN(C(=O)n1cnc(-c2cccnc2)c1)C1CCCCC1	–	Wistar rat, hippocampus	oral, 10 mg/kg/day of BIA 10-2474, 4 h, repeated 5 days	–	concentration	36 ± 7 ng/g
C[C@H]1CN(C(=O)CC#N)[C@]12CCN(c1ncnc3[nH]ccc13)C2	–	healthy adults, plasma	oral, 12 mg single dose, median	–	t1/2	2.6 h
Cc1cccc(CNC(=O)c2cn(CCNC(=O)c3ccccc3S)c3cc4c(cc3c2=O)OC(F)(F)O4)n1	–	Sprague-Dawley rat, male, whole blood	intramuscular, 3 mg/kg of parent drug	–	Tmax	0.39 ± 0.31 h
NS(=O)(=O)c1cc(C(=O)O)c(NCc2ccco2)cc1Cl	measured: headache	healthy men	oral, 8 days, treatment-emergent, crossover trial	–	subjects with adverse event	0%
O=C(COc1ccc(Cl)cc1)NC12CC(c3nnc([C@H]4C[C@@H](OC(F)(F)F)C4)o3)(C1)C2	measured: Headache	human	oral, dose not given, 14 days	–	adverse event incidence	55.9%
Cc1c2oc3c(C)ccc(C(=O)N[C@@H]4C(=O)N[C@H](C(C)C)C(=O)N5CCC[C@H]5C(=O)N(C)CC(=O)N(C)[C@@H](C(C)C)C(=O)O[C@@H]4C)c3nc-2c(C(=O)N[C@@H]2C(=O)N[C@H](C(C)C)C(=O)N3CCC[C@H]3C(=O)N(C)CC(=O)N(C)[C@@H](C(C)C)C(=O)O[C@@H]2C)c(N)c1=O	LC-MS	children with cancer, plasma	dose not given, 4 h	–	minimum plasma concentration	1.3 µg/L
C[C@H](NC(=O)/C(C#N)=C/c1cccc(Br)n1)c1ccccc1	LC-MS/MS	patients, plasma	oral, 1 mg/kg, cycle 1 day 1	–	AUC(all)	53 ng·h/mL
C[C@@H](c1nc(-c2ccc(C#N)cc2)cs1)[C@](O)(Cn1cncn1)c1cc(F)ccc1F	measured: infections and infestations (SOC)	humans	oral, dose not given, together with: ketoconazole	–	subjects with TEAEs	0%

SMILES	test	system	setting	scale	endpoint	value
CN(C)[C@@H]1C(O)=C(C(N)=O)C(=O)[C@@]2(O)C(O)=C3C(=O)c4c(O)cccc4[C@@](C)(O)[C@H]3C[C@@H]12	starch gel membrane permeability	Gram-negative envelope surrogate	200 µM, 10 min, pH 7.4	–	amount permeated	0.68 nmol
CN(C(=O)C(C)(C)c1cc(C(F)(F)F)cc(C(F)(F)F)c1)c1cnc(N2C[C@H]3COCCN3C[C@H]2CO)cc1-c1ccc(F)cc1[14CH3]	–	healthy men	oral, 120 mg single dose	–	tolerability	not toxic
O=C(Nc1nc2cccc(-c3ccc(CN4CCS(=O)(=O)CC4)cc3)n2n1)C1CC1	measured: musculoskeletal disorders	human rheumatoid arthritis patients	oral, 75 mg once daily, 4 weeks, regardless of relatedness	–	treatment-emergent adverse events	0%
COc1cc([C@@H]2[C@H]3CO[C@@]4(O)C(=O)[C@@H]2C=C([C@H]2Oc5cc(O)cc(O)c5C(=O)[C@@H]2O)[C@@H]34)ccc1O	–	OATP1B1/1B3 humanized mice, plasma	oral gavage, 500 mg/kg silymarin, geometric mean	–	AUC(0-4h)	0.34 µM·h
[18F]c1ccc(-c2ccc3c(c2)[nH]c2ccncc23)cn1	ex vivo biodistribution	APP/PS1 mouse, AD model, bladder	intravenous, 30 min	–	SUV	1.8 ± 1.09
CNC(=O)c1cccc(-c2ccc([C@@H](O)[C@H]3O[C@H](CO)[C@@H](O)[C@H](O)[C@@H]3O)c(C)c2)c1	–	male Sprague-Dawley rat, plasma	intravenous, 3 mg/kg, group mean	–	AUC(0-all)	1440 ng·h/mL
Cc1ccc(C(=O)N(CCCN)C(c2nc3snc(C)c3c(=O)n2Cc2ccccc2)C(C)C)cc1 (centres unmarked)	hypophosphataemia grade ≥3 (CTCAE)	human patients	intravenous, 10 mg/day	–	patients with adverse event	0%
CCc1cc(C(=O)NC)c2nccc(N3CCc4c(cc(Cn5ccnc5)cc4-c4cn(C)nc4C(F)(F)F)C3=O)c2c1	–	Sprague Dawley rats	oral, 50 mg/kg once daily, 7 days	–	serum DBIL level	0.8 ± 0.14 µmol/L
Cc1nc(-c2cnc(NC(C)C)n(C)c2=O)ccc1Oc1ccnc(-c2cnn(C)c2)c1	–	Beagle dog, male, plasma	oral, 30 mg/kg, crossover study, mean	–	apparent clearance	19.3 mL/min/kg
COc1ccc2[nH]c([S+]([O-])Cc3ncc(C)c(OC)c3C)nc2c1 (centres unmarked)	–	human male, dried plasma spots	oral, dose not given, 2 h, together with: fluvoxamine and voriconazole	–	R/S enantiomer ratio	1.03
O=C(O)[C@H]1O[C@@H](Oc2ccc(/C=C/c3cc(O)cc(O)c3)cc2)[C@H](O)[C@@H](O)[C@@H]1O	–	human, cerebrospinal fluid	–	–	samples above LOQ	0%
CC(C)c1nc(N(C)S(C)(=O)=O)nc(-c2ccc(F)cc2)c1/C=C/[C@@H](O)C[C@@H](O)CC(=O)O	population pharmacokinetic model	people living with HIV	oral, dose not given, bootstrap median	–	peripheral volume of distribution	1600 L
Cc1nc(-c2ccc(OCC(C)C)c(C#N)c2)sc1C(=O)O	–	human, plasma	oral, 40 mg once daily, together with: verinurad 10 mg	–	AUC(0-24)	4900 ng·h/mL
Cc1c(Cl)c(C)[n+]([O-])c(Cl)c1-c1noc(-c2cc(O)c(O)c([N+](=O)[O-])c2)n1	–	healthy Chinese subjects	oral, 25 mg, 4 days	–	TEAE incidence	13.3%
COc1ccc2c(c1)CN(C(=O)CCN1CCC(Cc3ccccc3)CC1)CC[S@@+]2[O-]	telemetry	conscious dog	intravenous, 8 mg/kg, 4 h	–	diastolic blood pressure	81 ± 15 mmHg
N#Cc1ccc2c(c1)[C@H]1CCCN(C(=O)c3ccc4[nH]cnc4c3)[C@H]1C2	–	human, plasma	oral, 240 mg, steady state, together with: background metformin	–	exposure increase	~9%
CO[C@H]1C[C@@H]2CC[C@@H](C)[C@@](O)(O2)C(=O)C(=O)N2CCCC[C@H]2C(=O)O[C@H]([C@H](C)C[C@@H]2CC[C@@H](O)[C@H](OC)C2)CC(=O)[C@H](C)/C=C(\C)[C@@H](O)[C@@H](OC)C(=O)[C@H](C)C[C@H](C)/C=C/C=C/C=C/1C	–	healthy adult horses	intravenous, 0.06 mg/kg, 0 h	–	heart rate	37 ± 5.2 beats/min
NC1(C(=O)N[C@@H](CCO)c2ccc(Cl)cc2)CCN(c2nc[nH]c3nccc2-3)CC1	–	metastatic CRPC patients	400 mg b.i.d., grade 3 to 4, treatment-related, together with: enzalutamide 160 mg daily	–	incidence of Leukopenia	0%
O=C(O)c1cc(O)c(O)c(O)c1	–	human plasma	median, both sexes	–	plasma concentration	15.1 nM

SMILES	test	system	setting	scale	endpoint	value
C[C@@H]1CCO[C@H]2Cn3cc(C(=O)NCc4ccc(F)cc4F)c(=O)c(O)c3C(=O)N12	population PK, post-hoc	children, 14 to <20 kg, plasma	oral, 15 mg dispersible tablet, steady state, geometric mean	–	AUC(0-24)	37200 ng·h/mL
CO[C@H]1/C=C/O[C@@]2(C)Oc3c(C)c(O)c4c(c3C2=O)C2=NC3(CCN(CC(C)C)CC3)NC2=C(NC(=O)/C(C)=C\C=C\[C@H](C)[C@H](O)[C@@H](C)[C@@H](O)[C@@H](C)[C@H](OC(C)=O)[C@@H]1C)C4=O	–	CD-1 mouse female, plasma	intravenous, 5 mg/kg	–	elimination rate constant	4.44e-05 s⁻¹
O=C(Nc1ccc(OC(F)(F)Cl)cc1)c1cnc(N2CC[C@@H](O)C2)c(-c2ccn[nH]2)c1	per laboratory record, measured: lipase increase	human patients	oral, dose not given, dose-finding study	–	grade ≥3 event rate	1.5%
O=C(O)CCc1cc(O)cc(O)c1	–	human plasma	median	–	plasma concentration	899 nM
Cc1c(-c2ccc(N3CCc4cccc(C(=O)Nc5nc6ccccc6s5)c4C3)nc2C(=O)O)cnn1CC12CC3(C)CC(C)(C1)CC(OCCNCC[C@H](O)CO)(C3)C2	–	beagle dog, male, anaesthetised	intravenous infusion, 0.3 mg/kg/min, 90 min	baseline: vehicle	mean arterial pressure change	-30%
O=C(O)Cc1cccc(O)c1	–	human plasma	mean	–	plasma concentration	16800 nM
CC(C)(C(=O)N1CCOc2c(C#N)cncc2C1)C(F)F	–	human, both sexes	oral, 40 mg single dose	–	subjects with fatigue TEAE	0%
O=C(O)c1ccc(O)c(O)c1	–	human plasma	mean, both sexes	–	plasma concentration	515 nM
CCn1ncc2c1-c1cnc(N)c(c1)O[C@H](C)c1cc(F)ccc1-c1nn(C)nc1C2	–	athymic nude mouse, female, sample A PDX, plasma	po, 5 mg/kg BID, 12 h, 5 days dosing	–	Cmin, unbound	100 ± 20 nM
Cc1ccc(Sc2ccccc2N2CCNCC2)c(C)c1	measured: Diarrhea	healthy adult men	oral, 10 mg daily, 12 days	–	participants with TEAE	0%
C[C@@H]1CN(c2c(F)c(N)c3c(=O)c(C(=O)O)cn(C4CC4)c3c2F)C[C@H](C)N1	starch gel membrane permeability	Gram-negative envelope surrogate	200 µM, 30 min, pH 7.4	–	amount permeated	0.79 nmol
O=C(O)CCC(=O)O.[2H]C([2H])([2H])Oc1cc(C)c2[nH]ccc2c1CN1CC[C@@H](C2CC2)C[C@H]1c1ccc(C(=O)O)cc1	multiple ascending dose	healthy Chinese subjects	100 mg twice daily	–	subjects with muscle pain TEAE	0%
O=C(N[C@H](CO)[C@H](O)c1ccc([N+](=O)[O-])cc1)C(Cl)Cl	starch gel membrane permeability	Gram-negative envelope surrogate	200 µM, 20 min, pH 7.4	–	amount permeated	1.98 nmol
CCOc1c([C@H](C)n2nc(C)c3c(N)ncnc32)cc(Cl)c(F)c1[C@@H]1CNC(=O)C1	measured: QTcF change ≤30 ms	previously treated B-cell malignancy	oral, 10 mg once daily, overall population	baseline: baseline	ECG observations	100%
N#Cc1ccc2c(c1)[C@H]1CCCN(C(=O)c3ccc4[nH]cnc4c3)[C@H]1C2	–	human males	10 mg, day 15	–	total testosterone level	12.8 nmol/L
O=C(O)/C=C/c1ccccc1O	–	human plasma	mean	–	plasma concentration	168 nM
O=C1NC(=O)C(c2ccccc2)(c2ccccc2)N1	–	Sprague-Dawley rat, serum	po, 40 mg/kg, 6 h	–	AST/ALT ratio	1.91
CNC(=O)c1ccc(-c2cnc3ncc(Cc4ccc5ncccc5c4)n3n2)cc1F	phase 1 clinical trial, measured: blood bilirubin increased	HCC expansion cohort	oral, 600 mg twice daily, grade 3 or 4	–	adverse event incidence	9%

Repeated from above:
SMILES	test	system	setting	scale	endpoint	value
Cc1nc(-c2ccc(OCC(C)C)c(C#N)c2)sc1C(=O)O	–	human, plasma	oral, 40 mg once daily, together with: verinurad 10 mg	–	AUC(0-24)	4900 ng·h/mL
CN(C(=O)n1cnc(-c2cccnc2)c1)C1CCCCC1	–	Wistar rat, hippocampus	oral, 10 mg/kg/day of BIA 10-2474, 4 h, repeated 5 days	–	concentration	36 ± 7 ng/g
CCOc1c([C@H](C)n2nc(C)c3c(N)ncnc32)cc(Cl)c(F)c1[C@@H]1CNC(=O)C1	measured: QTcF change ≤30 ms	previously treated B-cell malignancy	oral, 10 mg once daily, overall population	baseline: baseline	ECG observations	100%
Cc1c(C(=O)O)ccc2c3n(nc12)[C@@H]1[C@H](C3)N(CC2CC2)[C@@]2(C(=O)Nc3cc(Cl)ccc32)[C@H]1c1cccc(Cl)c1F	phase Ia trial, measured: Constipation	cancer patients	oral, dose not given, all patients grade ≥3	–	adverse event incidence	0%
NC1(C(=O)N[C@@H](CCO)c2ccc(Cl)cc2)CCN(c2nc[nH]c3nccc2-3)CC1	–	metastatic CRPC patients	400 mg b.i.d., grade 3 to 4, treatment-related, together with: enzalutamide 160 mg daily	–	incidence of Leukopenia	0%
CCn1ncc2c1-c1cnc(N)c(c1)O[C@H](C)c1cc(F)ccc1-c1nn(C)nc1C2	–	athymic nude mouse, female, sample A PDX, plasma	po, 5 mg/kg BID, 12 h, 5 days dosing	–	Cmin, unbound	100 ± 20 nM
